Measured values from different studies.
Parts stem from different laboratories: compare values within a part only. Changes are numbered by the printed parent chain.

Block 1 — method: universal PBM; molecule type: double-stranded DNA, one strand shown; medium: in vitro; tested at: not given; direction: higher = stronger binding
Target: Sal-like protein 4, full length isoform B (SALL4, Homo sapiens, UniProt Q9UJQ4-2, residues 1-616)
Setting: 8-mer, flanks averaged, mean of replicates
Construct (chain): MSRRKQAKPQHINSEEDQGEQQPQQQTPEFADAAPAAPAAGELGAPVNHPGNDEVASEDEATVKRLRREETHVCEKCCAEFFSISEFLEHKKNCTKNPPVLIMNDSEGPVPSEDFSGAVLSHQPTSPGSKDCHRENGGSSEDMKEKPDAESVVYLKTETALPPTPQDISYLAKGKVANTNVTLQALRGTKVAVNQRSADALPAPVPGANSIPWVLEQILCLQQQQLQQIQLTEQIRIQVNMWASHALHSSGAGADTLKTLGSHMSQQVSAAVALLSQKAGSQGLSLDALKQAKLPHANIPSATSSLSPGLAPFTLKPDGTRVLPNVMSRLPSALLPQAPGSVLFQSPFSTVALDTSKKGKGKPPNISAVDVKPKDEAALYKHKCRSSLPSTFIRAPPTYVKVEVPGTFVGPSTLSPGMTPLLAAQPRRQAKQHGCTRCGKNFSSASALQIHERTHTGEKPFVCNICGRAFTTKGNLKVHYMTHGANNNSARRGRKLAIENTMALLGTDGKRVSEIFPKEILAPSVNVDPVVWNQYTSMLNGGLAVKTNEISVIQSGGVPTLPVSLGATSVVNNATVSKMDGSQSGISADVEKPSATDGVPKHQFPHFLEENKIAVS
Strand | E-score
ATGCCTGC | -0.117
ATTAGCTG | -0.0106
GGTACTCA | -0.00098
TATTCGGA | 0.0818
GGTTGCGA | -0.0401
AGGATAAC | -0.0249
AAAGCTCC | -0.271
AGAAGACG | 0.0513
CATGGTAG | -0.102
ACATGACG | 0.0795
AAGCTTCT | 0.0885
GACAGAAA | 0.109
AGGGGACA | -0.214
CTTTGCCC | -0.192
AAGAGTCT | 0.0544
AGACGTAC | -0.0192
AGCCGGAC | -0.248
GAAGTACC | -0.154
AGCAACGC | -0.146
ACGAATTG | -0.00141
CGGAGTAG | -0.126
ACTCAATA | 0.319
AAGCTCGA | -0.0316
ACGCCGGG | -0.27
ACCACGAG | -0.143

Block 2 — target: CCNA2, cyclin fold, Cln2 fusion (human); method: yeast growth competition, sequencing; medium: yeast; setting: weak parent motif; relative to: not given; direction: higher = stronger binding
Starting sequence: PKN2 docking peptide (human); DSTVTKLDFDLEP
Change | normalised enrichment score
ASTVTKLDFDLEP [D1A] | -0.0774
DSTATKLDFDLEP [V4A] | 0.089
DSTVTKADFDLEP [L7A] | -0.514
DSTVTKLDFDAEP [L11A] | -0.217
DSAVTKLDFDLEP [T3A] | 0.649
DSTVTKLDFDLEA [P13A] | -0.323
DSTVTALDFDLEP [K6A] | -0.299

Block 3 — method: DHFR PCA, deep sequencing; medium: yeast; with: (+)-ABA 200 µM; relative to: wild-type fitted maximum; direction: higher = stronger binding
Target: ABI1, truncated, D143A, DHFR fusion (Arabidopsis thaliana)
Setting: methotrexate growth selection, single substitutions
Starting sequence: PYL1, truncated, DHFR fusion (Arabidopsis thaliana); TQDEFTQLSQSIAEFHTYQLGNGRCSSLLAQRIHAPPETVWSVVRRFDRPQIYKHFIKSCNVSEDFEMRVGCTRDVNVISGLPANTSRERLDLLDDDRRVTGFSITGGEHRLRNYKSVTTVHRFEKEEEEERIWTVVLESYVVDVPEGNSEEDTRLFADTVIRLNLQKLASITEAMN
Change | relative binding score [%]
T73A | 89.8
L82V | 94.3
P83E | 75.2
L91P | 7.36
N77A | 104
V70L | 91.6
I172L | 94.2
E89K | -0.644
V78G | 11.9
F56C | 80.3
A158W | 1.31
E129N | 98.8
F157E | -4.38
Q31H | 87.2
S80E | 39.6
T6K | 103
H122T | 49
M176A | 101
V161Q | 15.8
K126D | 106
A158N | 67.5
M176R | 103
V142M | 93.6
A158F | 29.3
T160E | 31.1

Block 4 — method: protein binding microarray; molecule type: double-stranded DNA, one strand shown; medium: in vitro; tested at: not given; relative to: not given; direction: higher = stronger binding
Target: Histone acetyltransferase KAT6A, both winged helices, GST fusion (KAT6A, Homo sapiens, UniProt Q92794, residues 1-181)
Setting: 8-mer, flanks averaged, mean of 2 arrays, mostly near background
Target sequence (chain): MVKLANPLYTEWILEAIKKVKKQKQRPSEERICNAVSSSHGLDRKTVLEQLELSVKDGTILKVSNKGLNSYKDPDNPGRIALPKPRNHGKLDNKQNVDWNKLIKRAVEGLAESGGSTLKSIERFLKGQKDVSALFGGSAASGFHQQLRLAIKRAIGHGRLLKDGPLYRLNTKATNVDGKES
Strand | E-score
AATAGCAA | -0.143
ATCCAAAG | -0.105
ACGAAGAC | -0.0775
AGTGTGAG | -0.241
CCTGGCAC | -0.181
CAACCTTG | 0.126
CCTCTTCG | 0.0392
GGAATCCA | -0.0112
AGCATCTG | -0.181
ACGCTTAG | 0.0747
ACTGGGGC | -0.165
GCCTAACC | -0.113
CATCGATC | -0.13
ATTAATAC | 0.0566
AATCAATT | 0.00562
AATCTTTA | -0.0242
CGGTAAGC | 0.153
ACCAGGGT | -0.2
